Assay results pooled from the literature.
Numbered parts are unrelated; each lists some results of a single study.

Series 1
Target: Prothrombin, mature alpha-thrombin (F2, Homo sapiens, UniProt P00734)
Technique: aptamer microarray, sandwich
Molecule type: DNA with 2'F-ANA
Medium: in vitro
Concentration: 200 nM
Setting: whole 15-mer aptamer, many near background
With: Cy3 exosite-II aptamer, 400 nM
Direction: higher = stronger binding
Strand: GGTTGGTGTGGTTGG
Under “mean fluorescence intensity”, `2'F-ANA at 2 5 9 10 12` is recorded as 52.7 a.u.
For `2'F-ANA at 3 4 6 9 14 15`, “mean fluorescence intensity” read 247 a.u.
`2'F-ANA at 5 6 9 10 11 13` — result for “mean fluorescence intensity”: 45.6 a.u.
`2'F-ANA at 1 2 3 4 5 6 7 8 9 10 12` — result for “mean fluorescence intensity”: 52.3 a.u.
For `2'F-ANA at 5 8 10 12 15`, “mean fluorescence intensity” read 46.5 a.u.
Under “mean fluorescence intensity”, `2'F-ANA at 1 2 4 6 7 9 12 14 15` is recorded as 57 a.u.
`2'F-ANA at 1 2 3 8 9 11 12 15` — result for “mean fluorescence intensity”: 375 a.u.
`2'F-ANA at 4 5 6 9 12`: “mean fluorescence intensity” 203 a.u.
For `2'F-ANA at 1 10 12 15`, “mean fluorescence intensity” read 78.9 a.u.
`2'F-ANA at 1 6 8 9 10 11 12 13 14 15` — result for “mean fluorescence intensity”: 53.9 a.u.
For `2'F-ANA at 2 3 4 8 9 11 13 15`, “mean fluorescence intensity” read 493 a.u.
For `2'F-ANA at 1 2 3 4 9 10 11 13 14 15`, “mean fluorescence intensity” read 53.4 a.u.
`2'F-ANA at 3 4 12 13`: “mean fluorescence intensity” 829 a.u.
Under “mean fluorescence intensity”, `2'F-ANA at 3 8 10 12 14 15` is recorded as 414 a.u.
`2'F-ANA at 1 3 4 6 9 10 11 12 13 15` — result for “mean fluorescence intensity”: 78.6 a.u.
For `2'F-ANA at 4 7 8 10 12 13 14`, “mean fluorescence intensity” read 65 a.u.
`2'F-ANA at 2 3 8 10 15`: “mean fluorescence intensity” 375 a.u.
`2'F-ANA at 2 4 6 7 9 10 12 13 14`: “mean fluorescence intensity” 65.4 a.u.
`2'F-ANA at 1 4 7 9 11 15`: “mean fluorescence intensity” 112 a.u.
`2'F-ANA at 1 3 4 6 7 10 12 14 15` — result for “mean fluorescence intensity”: 54.7 a.u.
For `2'F-ANA at 3 4 5 6 9 10 12 13 14 15`, “mean fluorescence intensity” read 53 a.u.
Under “mean fluorescence intensity”, `2'F-ANA at 1 4 7 11 13 15` is recorded as 76.6 a.u.
For `2'F-ANA at 1 2 7 12`, “mean fluorescence intensity” read 357 a.u.
`2'F-ANA at 5 7 8 12 13 14` — result for “mean fluorescence intensity”: 49 a.u.

Series 2
Target: Sal-like protein 4, full length isoform A (SALL4, Homo sapiens, UniProt Q9UJQ4, residues 1-1053)
Chain of UniProt Q9UJQ4 (whole entry, looked up): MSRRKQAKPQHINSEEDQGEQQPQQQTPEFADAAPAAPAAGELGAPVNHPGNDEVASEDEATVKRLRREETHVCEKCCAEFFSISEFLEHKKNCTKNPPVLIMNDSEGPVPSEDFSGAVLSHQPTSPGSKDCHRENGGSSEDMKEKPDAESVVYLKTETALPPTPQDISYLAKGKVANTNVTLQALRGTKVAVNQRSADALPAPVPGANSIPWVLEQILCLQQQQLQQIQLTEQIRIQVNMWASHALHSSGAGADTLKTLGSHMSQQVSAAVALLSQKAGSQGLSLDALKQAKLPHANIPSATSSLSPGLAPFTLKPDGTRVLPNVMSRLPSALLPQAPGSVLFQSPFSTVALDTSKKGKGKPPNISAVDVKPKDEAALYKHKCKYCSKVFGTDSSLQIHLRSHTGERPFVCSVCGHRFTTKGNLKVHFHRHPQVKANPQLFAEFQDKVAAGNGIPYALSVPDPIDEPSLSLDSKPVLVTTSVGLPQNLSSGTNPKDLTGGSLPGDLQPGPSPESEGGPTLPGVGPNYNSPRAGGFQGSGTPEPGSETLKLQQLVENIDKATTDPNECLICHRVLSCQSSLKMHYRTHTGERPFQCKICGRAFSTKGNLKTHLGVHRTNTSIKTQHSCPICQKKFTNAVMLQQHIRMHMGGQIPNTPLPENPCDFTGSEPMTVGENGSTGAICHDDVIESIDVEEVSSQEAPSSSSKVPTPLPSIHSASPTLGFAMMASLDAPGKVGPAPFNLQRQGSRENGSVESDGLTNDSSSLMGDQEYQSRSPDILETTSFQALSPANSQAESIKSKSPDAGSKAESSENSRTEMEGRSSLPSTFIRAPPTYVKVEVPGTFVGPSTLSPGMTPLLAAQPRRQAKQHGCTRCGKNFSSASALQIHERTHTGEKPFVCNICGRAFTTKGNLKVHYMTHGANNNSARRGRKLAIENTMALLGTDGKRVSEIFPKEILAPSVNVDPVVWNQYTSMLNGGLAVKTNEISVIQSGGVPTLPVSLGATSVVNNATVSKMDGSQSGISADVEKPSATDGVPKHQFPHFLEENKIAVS
Technique: universal PBM
Molecule type: double-stranded DNA, one strand shown
Medium: in vitro
Concentration: 600 nM
Setting: 8-mer, flanks averaged, mean of replicates
Direction: higher = stronger binding
`AGCTTACG` gave an E-score of -0.115.
`AAGCTTGT` has an E-score of 0.104.
With `CAGTCGGC` the E-score was -0.319.
`GGATCCCC` gave an E-score of -0.305.
With `AATTACAG` the E-score was 0.269.
For `TCTTTGCA`, the E-score was 0.211.
The E-score of `TACTGGGA` is reported as 0.0585.
`ATCTCCAG` has an E-score of -0.0182.
`CATGGTAG` gave an E-score of -0.151.
`AGACTGCA` gave an E-score of -0.107.
`CACAATGG` has an E-score of 0.0528.
`CAAACTGC` has an E-score of -0.0524.
`AGCTGAAA` has an E-score of 0.181.
`CTCGGGTC` gave an E-score of -0.202.
`AAATCATC` gave an E-score of 0.145.
For `GGAGCCAA`, the E-score was -0.107.
For `CTATTGCA`, the E-score was 0.212.

Series 3
Target: RNA binding protein fox-1 homolog 2, RRM domain, GST-SBP tag (RBFOX2, Homo sapiens, UniProt O43251-10, residues 100-194)
Technique: RNA Bind-n-Seq
Molecule type: RNA
Medium: in vitro
Concentration: 365 nM
Setting: natural RNA segment, single round, ends assumed
Relative to: no-protein control
Direction: higher = stronger binding
Constant ends, left off below: GGGAGUUCUACAGUCCGACGAUC … UGGAAUUCUCGGGUGCCAA
Construct (chain): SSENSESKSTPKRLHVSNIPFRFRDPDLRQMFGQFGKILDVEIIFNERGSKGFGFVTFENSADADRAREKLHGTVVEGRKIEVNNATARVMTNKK
Under “RBNS enrichment (R)”, `GCCACCACGUGACGCUGUUCUUAGUUCACUAAUGUUAGCCUUAUUUAGGACAAAGUCAGCCAGACACCUUGUACUGGGCACGCGUCAGACUGCAGCCAGUCCGUUUCCUU` is recorded as 0.32.
`CUGUCCAUAGUGAGUGAAAGGUGGCAGGCAGGGGCCUACAGCUCCUAGGGAAUGGAGAAUUCAUGUGAAGCCGAAUGAAGGAUCUUAUCUUAUACUGUCCCCCUUUCUAA` — result for “RBNS enrichment (R)”: 7.48.
`UGUGCAAUACGAAUUAUGCAAUCACAAUACAUUUGUAGCUCCCGAGUGUCCUAAAGGGAGUGCACUUCUUUGAAGCUGGUGUGUUAAUACUAUGUAAUAAAUGGUUAACU`: “RBNS enrichment (R)” 0.545.
`ACAUUUAGUGGUUUCCAAAAUAUAUUAGUAUAUUGUUGAACAUACAUUAUGCCUUAGAAAUGCACAUUCUGUAUUUUGUGGGAUGAUAAUCUAAUUCAGUAUAGAAUAUG`: “RBNS enrichment (R)” 0.239.
Under “RBNS enrichment (R)”, `UGUAGGCUUCCUUGCACAGAUGUUGCAGCCAGCCUCAGGAGUAAAGUGCCCGCUGACUGCUGCCGCCACCUCUGUCUCGCUCCCUGUCAGUGCUGCUGGCACGUGGGACG` is recorded as 0.324.
`AGCUCUAAAACAUAGACUGAAGAUUUAUUUUUAAUAUGUUGACUUUAUUUCUGAGCAAAGCAUCGGUCAUGUGUGUAUUUUUUCAUAGUCCCACCUUGGAGCAUUUAUGU` — result for “RBNS enrichment (R)”: 0.696.
`AAUGUAAUAUUAAAAUUCCAAGUAGGGGUAGCCACAGGUGAGAACAAAGGCCUUCAUGGGAAGCUUGCACGAGCAUCUCAAGGUGGCUGGGCAUAGCAGAGUUCAACGAG`: “RBNS enrichment (R)” 1.79.
`UGUGGUGCUUACACACACCCAGUUGUCUCCACAGCUCUGAUACCUUUGCCUUCUGUUCUCCUCUCUAGCAUAAGACUUUGGCUUCUGCCUUAAGGUUUUCCUAAGGAAUU`: “RBNS enrichment (R)” 0.372.
`AUUUUGGCUUUGACUCUGCCAUUUCUGAAAUGUGGGGGAGGAUGGAGGCAGCUGACCUCUCCAGUUGCUGUGUUGUAUUCCUACCCAAUUUCCUGGGCAGUUGAUGCAUC`: “RBNS enrichment (R)” 1.05.
`UUGAGUUUCCAAUGGAACCCUUGUUUUUUAAUAAUCGACUUUUUAAAUGUGAUCAGGACUAUAAUAUUGUACAGUUAUUAUAGGGCUUUUGGGGAAGGGGAGGAUAGCGA`: “RBNS enrichment (R)” 0.798.
`UUUGAAGAAAAUGGAGACAGCUAGAACAAGCCCCCAGACUGCAAUCACUGGCUCCAGAAUUGUCUUUGCCCUUCUCACCUGUUCCUGGAAACUGGGGCAGCCAGUGCUUA`: “RBNS enrichment (R)” 0.336.
`UUCCAAUACUCUUUUAAAAAGCGUGUCUGCCCUCUCUUACUUCUAUGUAUUUGUUUAUCGACACACUCACCCUUUCUGAGAUAGCAUUUUGCUCCCUUGAUCCCCCCCUU` — result for “RBNS enrichment (R)”: 0.622.

Series 4
Target: Ras GTPase-activating protein-binding protein 1, RRM domain (G3BP1, Homo sapiens, UniProt Q13283)
Chain of UniProt Q13283 (whole entry, looked up): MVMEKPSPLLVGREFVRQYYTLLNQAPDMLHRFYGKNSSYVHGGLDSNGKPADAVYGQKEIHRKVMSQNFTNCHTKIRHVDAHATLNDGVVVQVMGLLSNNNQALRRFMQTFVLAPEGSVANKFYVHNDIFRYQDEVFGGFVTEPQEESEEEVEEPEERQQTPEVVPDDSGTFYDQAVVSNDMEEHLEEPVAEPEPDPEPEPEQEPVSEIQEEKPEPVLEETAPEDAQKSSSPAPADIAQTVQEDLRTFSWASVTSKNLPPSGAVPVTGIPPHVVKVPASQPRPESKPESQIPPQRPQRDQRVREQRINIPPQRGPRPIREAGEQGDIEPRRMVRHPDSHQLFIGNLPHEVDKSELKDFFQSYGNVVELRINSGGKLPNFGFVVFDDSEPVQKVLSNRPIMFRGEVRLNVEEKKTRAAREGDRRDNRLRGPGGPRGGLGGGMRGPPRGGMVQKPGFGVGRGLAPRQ
Technique: RNA Bind-n-Seq
Molecule type: RNA
Medium: in vitro
Concentration: 1 µM
Setting: whole 134-nt RNA, ends assumed
With: 150 mM KCl
Relative to: input library
Direction: higher = stronger binding
Constant ends, left off below: GGGAGUUCUACAGUCCGACGAUC … UGGAAUUCUCGGGUGUCAAGG
With `GUCCUGUGCUACACAUCGUAUGUACCGAAUCGGGGUUUUUGGUUUUUGGGGUUUUUGGGAAAGUAUUAUGUUACGCCGUUCGGAUCUGCA` the log2 enrichment was -0.139.
With `CACAGACAACACGCACCCACACAGACACAGAGGGAAGGGGUUGGGCUGGGGACAGGGUGCACAGCAGGGCGGGGUAGGACCCCAGCCCCU` the log2 enrichment was -0.0243.
The log2 enrichment of `UGGCGCCGUUCGACACCAGGCGGAUCCGCUCUGCAGCACGAACCCAUCUCCAGCCGCAGCCGCAGCCGCCGCCCGGGCCGAGGAGCAGCC` is reported as -0.646.
For `UCCUGUGCUACACAUCGUAUGUACCGAAUCGGGUUUUUUGGUUUUUUGGGUUUUUUGGGGAAAGUAUUAUGUUACGCCGUUCGGAUCUGC`, the log2 enrichment was -0.201.
`UCAAGUCCUGUGCUACACAUCGUAUGUACCGAAUCGGGUUUUUGGGAGGGUGGGAAAGUAUUAUGUUACGCCGUUCGGAUCUGCACUUCC` gave a log2 enrichment of 0.55.
With `GCAGUAAGUAAAAACAAAUGGAAAUGCUUCGGAUAGUGGCAGGGGUGGGGGUUGCUAAGGAAAGGGUGGGAUGGGAGUGGGUAAAGAGUU` the log2 enrichment was 1.16.
For `UCCUCAAGUCCUGUGCUACACAUCGUAUGUACCGAAUCGGGAGGGAGGGAGGAAAGUAUUAUGUUACGCCGUUCGGAUCUGCACUUCCAG`, the log2 enrichment was 0.747.
The log2 enrichment of `GCAGGAAGUAAAAACAAAUGGAAAUGCUUCGGAUAGCGGCAGGGGUGGGGGUUGCUAAGGAAAGGGUGGGAUGGGAGUGGGUAAAGAGUU` is reported as 0.654.
`CUGUGCUACACAUCGUAUGUACCGAAUCGGCCCCCCCGGCCCCCCCGGGGCCCCCCCGGGGAAAGUAUUAUGUUACGCCGUUCGGAUCUG` has a log2 enrichment of -0.704.
The log2 enrichment of `CUCAAGUCCUGUGCUACACAUCGUAUGUACCGAAUCGGGUGGGGUGGGUGGGGAAAGUAUUAUGUUACGCCGUUCGGAUCUGCACUUCCA` is reported as 1.04.
`UGUGCUACACAUCGUAUGUACCGAAUCGGGGAAAAAGGGGAAAAAAAGGGGAAAAAAAGGGGAAAGUAUUAUGUUACGCCGUUCGGAUCU` gave a log2 enrichment of 1.15.
For `ACCAUGCAGGUGGGCAUCUUUGGGAAGUGGGGCAAGGGGGGGAUAGGAAGGGGGGUAACACUUUGGGAACAGGUGGUCCCAGGUCGUUUC`, the log2 enrichment was 0.942.
`UGGGAGGUGGAUUUUGUUUAUUUUUUUAGCUCAUUUCCAGGGGUGGGAAUUUUUUUUUAAGAUGUGUCAUGAAUAAAGUUGUUUUUGAAA` gave a log2 enrichment of 1.96.
`ACCAUGCAGGUGGGCAUCUUUGGGAAGUGGGGCAAGGGGGGGAUAGGGAGGGGGGUAACACUUUGGGAACAGGUGGAAACAGGUCGUUUC` gave a log2 enrichment of -0.523.

For quick reference, copied from above (series 3):
`CUGUCCAUAGUGAGUGAAAGGUGGCAGGCAGGGGCCUACAGCUCCUAGGGAAUGGAGAAUUCAUGUGAAGCCGAAUGAAGGAUCUUAUCUUAUACUGUCCCCCUUUCUAA` — result for “RBNS enrichment (R)”: 7.48.
`UGUGCAAUACGAAUUAUGCAAUCACAAUACAUUUGUAGCUCCCGAGUGUCCUAAAGGGAGUGCACUUCUUUGAAGCUGGUGUGUUAAUACUAUGUAAUAAAUGGUUAACU`: “RBNS enrichment (R)” 0.545.
`ACAUUUAGUGGUUUCCAAAAUAUAUUAGUAUAUUGUUGAACAUACAUUAUGCCUUAGAAAUGCACAUUCUGUAUUUUGUGGGAUGAUAAUCUAAUUCAGUAUAGAAUAUG`: “RBNS enrichment (R)” 0.239.
Under “RBNS enrichment (R)”, `UGUAGGCUUCCUUGCACAGAUGUUGCAGCCAGCCUCAGGAGUAAAGUGCCCGCUGACUGCUGCCGCCACCUCUGUCUCGCUCCCUGUCAGUGCUGCUGGCACGUGGGACG` is recorded as 0.324.
`AGCUCUAAAACAUAGACUGAAGAUUUAUUUUUAAUAUGUUGACUUUAUUUCUGAGCAAAGCAUCGGUCAUGUGUGUAUUUUUUCAUAGUCCCACCUUGGAGCAUUUAUGU` — result for “RBNS enrichment (R)”: 0.696.
`AAUGUAAUAUUAAAAUUCCAAGUAGGGGUAGCCACAGGUGAGAACAAAGGCCUUCAUGGGAAGCUUGCACGAGCAUCUCAAGGUGGCUGGGCAUAGCAGAGUUCAACGAG`: “RBNS enrichment (R)” 1.79.
`UGUGGUGCUUACACACACCCAGUUGUCUCCACAGCUCUGAUACCUUUGCCUUCUGUUCUCCUCUCUAGCAUAAGACUUUGGCUUCUGCCUUAAGGUUUUCCUAAGGAAUU`: “RBNS enrichment (R)” 0.372.
`AUUUUGGCUUUGACUCUGCCAUUUCUGAAAUGUGGGGGAGGAUGGAGGCAGCUGACCUCUCCAGUUGCUGUGUUGUAUUCCUACCCAAUUUCCUGGGCAGUUGAUGCAUC`: “RBNS enrichment (R)” 1.05.
`UUGAGUUUCCAAUGGAACCCUUGUUUUUUAAUAAUCGACUUUUUAAAUGUGAUCAGGACUAUAAUAUUGUACAGUUAUUAUAGGGCUUUUGGGGAAGGGGAGGAUAGCGA`: “RBNS enrichment (R)” 0.798.
`UUUGAAGAAAAUGGAGACAGCUAGAACAAGCCCCCAGACUGCAAUCACUGGCUCCAGAAUUGUCUUUGCCCUUCUCACCUGUUCCUGGAAACUGGGGCAGCCAGUGCUUA`: “RBNS enrichment (R)” 0.336.
